Literature values as cited in several papers.
Compare with care: the assays were run in different laboratories. Converted amounts (≈) assume the structure as drawn.
Organism: Escherichia coli

Structure (SMILES) | effect on | strain | tested at | relative to | endpoint | result
CNC(C)C1CCC(N)C(OC2C(N)CC(N)C(OC3OCC(C)(O)C(NC)C3O)C2O)O1 (stereo not drawn) | – | ATCC 25922 | – | – | MIC | 0.25 to 1 µg/mL (≈ 0.523 to 2.09 µM)
CNC(C)C1CCC(N)C(OC2C(N)CC(N)C(OC3OCC(C)(O)C(NC)C3O)C2O)O1 (stereo not drawn) | – | clinical isolate RKI-No_592/16 | – | – | MIC | 1 µg/mL (≈ 2.09 µM)
CN(C)c1cc(NC(=O)CNC(C)(C)C)c(O)c2c1C[C@H]1C[C@H]3[C@H](N(C)C)C(O)=C(C(N)=O)C(=O)[C@@]3(O)C(O)=C1C2=O | – | ATCC BAA-2469 | – | – | MIC | 0.5 µg/mL (≈ 0.854 µM)
Oc1ccc(-c2nc(-c3ccc(OC4CCCC4)cc3)no2)cc1 | – | ATCC 25922 | – | – | MIC | > 128 µg/mL
CC1(C)S[C@@H]2[C@H](NC(=O)[C@H](N)c3ccccc3)C(=O)N2[C@H]1C(=O)O | – | clinical isolate RKI-No_95/15 | – | – | MIC | > 16 µg/mL
c1ccc2c(c1)CCNC2c1c[nH]c2ccccc12 (stereo not drawn) | efflux pump inhibition | AG100A AcrAB-TolC deleted | 50 µM | untreated cells | relative fluorescence index | 0.52
Cc1cc(C)nc(NS(=O)(=O)c2ccc(N)cc2)n1 | – | – | – | – | MIC | 16 µg/mL (≈ 57.5 µM)
C[C@H]1COc2c(N3CCN(C)CC3)c(F)cc3c(=O)c(C(=O)O)cn1c23 | – | ATCC 25922 | – | – | MIC | 0.008 to 0.06 µg/mL (≈ 0.0221 to 0.166 µM)
O=C(O)c1[nH]c2ccccc2c1C1NCCc2ccccc21 (stereo not drawn) | efflux pump inhibition | AG100A AcrAB-TolC deleted | 50 µM | untreated cells | relative fluorescence index | -0.01
